Experimental data collected from several papers.
± gives the spread as reported.

The tissue uptake of `O=C(c1ccc(F)cc1)C1CCN(C2Cc3c(cccc3OCC[18F])CC2O)CC1` (single isomer, unassigned; (-)) is reported as 2.36 ± 0.52 %ID/g (Sprague-Dawley rat, male, kidney; intravenous, dose not given, 5 min).
The tissue uptake of `O=C(O)CC[C@H](NC(=O)O[C@@H](CCCCNC(=O)c1ccc([18F])cc1)C(=O)O)C(=O)O` is reported as 0.04 ± 0.02 %ID/g (mouse, PC-3 PIP/flu xenografts, fat; 180 min).
For `C=Cc1cc(O)cc2nc(-c3ccc(O)c([76Br])c3)oc12`, the tissue uptake was 0.21 ± 0.1 %ID/g (female C57BL/6 mouse, uterus; 1 h, high dose).
For `N=C(N)NCc1ccc(C(=O)NCCCC[C@H](NC(=O)N[C@@H](CCC(=O)O)C(=O)O)C(=O)O)cc1[131I]`, the tissue uptake was 0.73 ± 0.13 %ID/g (SCID mouse, PC-3 xenografts, blood; 1 h).
`CN[C@](C)(C[18F])C(=O)O` has a tissue uptake of 0.2 ± 0.04 %ID/g (SCID mouse SK-OV-3 xenograft, brain; 120 min, post injection).
`N=C(N)NCc1ccc(C(=O)NCCCC[C@H](NC(=O)N[C@@H](CCC(=O)O)C(=O)O)C(=O)O)cc1[211At]` gave a tissue uptake of 0.18 ± 0.13 %ID/g (SCID mouse, PC-3 xenografts, brain; 1 h).
With `COc1cc(C(=O)NCCOCCOCCOCCNC(=O)c2ccc([18F])nc2)ccc1NC(=O)C1NC(CC(C)(C)C)C(C#N)(c2ccc(Cl)cc2F)C1c1cccc(Cl)c1F` (stereo not drawn) the tissue uptake was 7.28 ± 9.23 %ID/g (athymic male mice, SJSA-1 xenograft, bladder; 1 h).
`N=C(N)NCc1ccc(C(=O)NCCCC[C@H](NC(=O)CCCCCCC(=O)NCCCC[C@H](NC(=O)N[C@@H](CCC(=O)O)C(=O)O)C(=O)O)C(=O)O)cc1[211At]` has a tissue uptake of 9.36 ± 2.18 %ID/g (SCID mouse, PC-3 xenografts, stomach; 21 h).
For `COc1cc2ncnc(Oc3cccc(N[11C](=O)Nc4cc(C(C)(C)C(F)(F)F)on4)c3)c2cc1OC`, the tissue uptake was 3.33 ± 0.11 %ID/g (Balb/c nude mouse, female, A375 melanoma xenograft, heart; 6.6 MBq, 30 min).

Excerpt of the above:
`N=C(N)NCc1ccc(C(=O)NCCCC[C@H](NC(=O)CCCCCCC(=O)NCCCC[C@H](NC(=O)N[C@@H](CCC(=O)O)C(=O)O)C(=O)O)C(=O)O)cc1[211At]` has a tissue uptake of 9.36 ± 2.18 %ID/g (SCID mouse, PC-3 xenografts, stomach; 21 h).
